Results gathered from unrelated publications.
Every numbered part comes from another study and shows a few of its results, in no order. Changes are numbered by the printed parent chain.

Series 1
Target: NFE2L1, bZIP domain (human)
Technique: DHFR protein complementation
Medium: yeast
Notes: single substitutions, most at no-binding floor
Relative to: wild-type JUN-FOS pair
Direction: higher = stronger binding
Starting sequence: JUN, bZIP domain (human); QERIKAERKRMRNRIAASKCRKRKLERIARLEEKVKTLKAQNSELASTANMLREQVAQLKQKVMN; partner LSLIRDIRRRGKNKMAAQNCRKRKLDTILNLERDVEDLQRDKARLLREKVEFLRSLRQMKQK
For `V35G`, the binding fitness was -1.46 natural log.
For `S47W`, the binding fitness was -1.55 natural log.
The binding fitness of `L52M` is reported as -1.51 natural log.
With `V35R` the binding fitness was -1.53 natural log.
The binding fitness of `E44M` is reported as -1.3 natural log.
The binding fitness of `N42E` is reported as -1.53 natural log.
The binding fitness of `A57G` is reported as -1.25 natural log.
`K39Q` has a binding fitness of -1.54 natural log.
The binding fitness of `A29I` is reported as -1.32 natural log.
For `T48L`, the binding fitness was -1.33 natural log.
`A29P` has a binding fitness of -1.52 natural log.
The binding fitness of `S47H` is reported as -1.33 natural log.
With `A49V` the binding fitness was -1.36 natural log.
With `M51G` the binding fitness was -1.49 natural log.
`I28Q` has a binding fitness of -1.47 natural log.
With `E33P` the binding fitness was -1.5 natural log.
`L45K` has a binding fitness of -1.5 natural log.
`N42V` gave a binding fitness of -1.48 natural log.

Series 2
Target: Interferon regulatory factor 7, full length, phosphomimetic (IRF7, Homo sapiens, UniProt Q92985, residues 1-503, S101K/S471D/S472D/S475D/S476D/S477D/S483D/S484D/S487D)
Technique: protein-binding microarray
Molecule type: double-stranded DNA, one strand shown
Medium: in vitro
Tested at: 250 nM
Notes: 60-bp whole probe
Together with: salmon DNA 0.4 mg/ml
Relative to: random background probes
Direction: higher = stronger binding
All sequences stand within: GCCTAGCAC … GTCTTGATTCGCTTGACGCTGCTG
Residues (chain): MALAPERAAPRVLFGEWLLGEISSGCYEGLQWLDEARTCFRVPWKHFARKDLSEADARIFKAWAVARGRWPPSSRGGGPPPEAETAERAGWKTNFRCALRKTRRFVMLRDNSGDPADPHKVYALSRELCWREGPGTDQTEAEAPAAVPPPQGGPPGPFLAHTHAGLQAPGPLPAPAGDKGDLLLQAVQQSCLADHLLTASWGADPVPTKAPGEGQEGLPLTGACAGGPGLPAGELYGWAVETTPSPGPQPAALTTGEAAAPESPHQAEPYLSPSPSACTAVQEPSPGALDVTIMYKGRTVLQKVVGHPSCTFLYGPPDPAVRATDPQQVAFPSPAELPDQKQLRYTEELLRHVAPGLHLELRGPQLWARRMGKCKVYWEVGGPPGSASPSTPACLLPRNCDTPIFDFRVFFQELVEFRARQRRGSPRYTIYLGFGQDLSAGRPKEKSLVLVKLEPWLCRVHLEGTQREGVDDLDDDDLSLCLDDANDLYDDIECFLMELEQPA
`TTAGGACTCGACTTTCGGTTAGTGCTA` has a log fluorescence of 3.57 z-score.
`TCACCAATCATTTTTGCACTGTGCTAG` has a log fluorescence of -0.173 z-score.
With `GACTGTCTCCTTTTCCTGACGTGCTAG` the log fluorescence was 0.782 z-score.
With `GACGATTTCAGTACCGAGACGTGCTAG` the log fluorescence was 0.213 z-score.
The log fluorescence of `TTCCAATTCTCTTTTCACTTGTGCTAG` is reported as 1.95 z-score.
For `GATGTTTTGAGTTTTCCTTCGTGCTAG`, the log fluorescence was 0.665 z-score.
For `TTAGATATCGGGTTTTGATTAGTGCTA`, the log fluorescence was 1.1 z-score.
`TTCGATCTCAGTTTCGATTAGTGCTAG` has a log fluorescence of 7.47 z-score.
`TTAGATATCAGACTGGATAAGTGCTAG` has a log fluorescence of -0.14 z-score.
`GACTGACTGGGGTATCGGGACGTGCTA` has a log fluorescence of -0.386 z-score.
`GACGGCCTCCTACTGCTGACGTGCTAG` has a log fluorescence of -0.768 z-score.
`GACGGTCTCGACTATCGGGACGTGCTA` gave a log fluorescence of 0.273 z-score.
The log fluorescence of `TTAGGTATCGGGACTGTGTTAGTGCTA` is reported as -0.0372 z-score.
The log fluorescence of `TTGGGTTTCGACTATCGGTTAGTGCTA` is reported as 4.18 z-score.
`GACGGTTTTCTTATCCTGACGTGCTAG` has a log fluorescence of 1.43 z-score.
`GAGTCTTCTCCTCTAGGTTCGTGCTAG` gave a log fluorescence of 1.13 z-score.
`GACGGTATGGGTTTCGGGACGTGCTAG` gave a log fluorescence of 1.33 z-score.
With `GACGGTATCGACTCTGGGGACGTGCTA` the log fluorescence was 0.136 z-score.
For `TCATAGTTTCTTTTCTTACTGTGCTAG`, the log fluorescence was 5.24 z-score.

Series 3
Target: CCNB2, cyclin fold, Cln2 fusion (human)
Technique: yeast growth competition, sequencing
Medium: yeast
Notes: weak parent motif
Relative to: not given
Direction: higher = stronger binding
Starting sequence: WEE1 docking peptide (human); HKTFRKLRLFDTP; partner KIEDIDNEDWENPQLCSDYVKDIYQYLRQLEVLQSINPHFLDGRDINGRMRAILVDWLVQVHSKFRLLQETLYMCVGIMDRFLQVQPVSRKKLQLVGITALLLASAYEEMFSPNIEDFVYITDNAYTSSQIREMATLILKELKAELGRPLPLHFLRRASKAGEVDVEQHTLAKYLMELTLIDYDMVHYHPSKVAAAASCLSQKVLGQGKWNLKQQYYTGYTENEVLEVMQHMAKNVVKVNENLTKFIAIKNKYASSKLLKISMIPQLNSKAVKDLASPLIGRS
For `HKTFDKLRLFDTP [R5D]`, “normalised enrichment score” read 0.266.
For `HKTFWKLRLFDTP [R5W]`, “normalised enrichment score” read 0.503.
`HKTFRKLRLEDTP [F10E]`: “normalised enrichment score” 0.273.
Under “normalised enrichment score”, `HKTFRKLRLFMTP [D11M]` is recorded as 0.825.
`HTTFRKLRLFDTP [K2T]` — result for “normalised enrichment score”: 1.17.
Under “normalised enrichment score”, `HKTFRSLRLFDTP [K6S]` is recorded as 0.152.
Under “normalised enrichment score”, `HKTFRKPRLFDTP [L7P]` is recorded as 0.555.
`HVTFRKLRLFDTP [K2V]`: “normalised enrichment score” 0.607.
Under “normalised enrichment score”, `HKTFRKLRLLDTP [F10L]` is recorded as 0.282.
Under “normalised enrichment score”, `HKTFRKLRLFDTF [P13F]` is recorded as 0.633.
For `HKTFRTLRLFDTP [K6T]`, “normalised enrichment score” read 0.688.
For `HKTKRKLRLFDTP [F4K]`, “normalised enrichment score” read 0.582.
`EKTFRKLRLFDTP [H1E]` — result for “normalised enrichment score”: 0.123.
`HKTFRKLRLFDAP [T12A]` — result for “normalised enrichment score”: 0.701.
Under “normalised enrichment score”, `HYTFRKLRLFDTP [K2Y]` is recorded as -0.181.
For `HKTFSKLRLFDTP [R5S]`, “normalised enrichment score” read 0.211.
Under “normalised enrichment score”, `HKTFHKLRLFDTP [R5H]` is recorded as 0.982.
Under “normalised enrichment score”, `HKTFRKLRLFDGP [T12G]` is recorded as 1.29.
Under “normalised enrichment score”, `HKTFRKLRLFDLP [T12L]` is recorded as 0.427.
`WKTFRKLRLFDTP [H1W]`: “normalised enrichment score” 0.922.
`HKTMRKLRLFDTP [F4M]`: “normalised enrichment score” 0.951.
For `HKTFRKLRLFITP [D11I]`, “normalised enrichment score” read 0.396.
`HKTDRKLRLFDTP [F4D]`: “normalised enrichment score” 0.379.
`HKLFRKLRLFDTP [T3L]` — result for “normalised enrichment score”: -0.148.
Under “normalised enrichment score”, `HKTFRKLREFDTP [L9E]` is recorded as 0.837.

Series 4
Target: Ras GTPase-activating protein-binding protein 1, full length (G3BP1, Homo sapiens, UniProt Q13283)
UniProt Q13283, sequence (whole entry, looked up): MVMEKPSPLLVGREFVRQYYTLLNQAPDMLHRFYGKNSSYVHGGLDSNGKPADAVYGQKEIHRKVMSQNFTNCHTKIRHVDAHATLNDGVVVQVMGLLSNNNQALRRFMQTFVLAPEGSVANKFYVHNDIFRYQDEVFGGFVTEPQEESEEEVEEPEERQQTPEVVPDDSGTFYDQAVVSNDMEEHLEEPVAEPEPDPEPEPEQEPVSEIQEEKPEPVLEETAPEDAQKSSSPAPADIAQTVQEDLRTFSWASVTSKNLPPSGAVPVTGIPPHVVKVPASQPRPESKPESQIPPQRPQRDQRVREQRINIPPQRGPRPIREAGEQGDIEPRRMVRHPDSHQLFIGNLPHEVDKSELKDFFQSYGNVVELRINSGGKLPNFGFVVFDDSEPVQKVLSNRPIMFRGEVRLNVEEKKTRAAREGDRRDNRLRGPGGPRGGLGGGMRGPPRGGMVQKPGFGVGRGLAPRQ
Technique: RNA Bind-n-Seq
Molecule type: RNA
Medium: in vitro
Tested at: 200 nM
Notes: whole 134-nt RNA, ends assumed
Together with: 150 mM LiCl
Relative to: input library
Direction: higher = stronger binding
Each molecule: 7-deaza-guanosine replaces G
All sequences stand within: GGGAGUUCUACAGUCCGACGAUC … UGGAAUUCUCGGGUGUCAAGG
With `GCAGGAAGUAAAAACAAAUGGAAAUGCUUCGGAUAGUGGCAGGGGUGGGGGUUGCUAAGGAAAGGUUGGGAUGGGAGUGGGUAAAGAGUU` the log2 enrichment was 0.00546.
The log2 enrichment of `UCCUGUGCUACACAUCGUAUGUACCGAAUCAAAUUUUUUUAAAUUUAAACCCCCCCAAAAAAGUAUUAUGUUACGCCGUUCGGAUCUGCA` is reported as 1.5.
`CAAGUCCUGUGCUACACAUCGUAUGUACCGAAUCAAACCCAAAUUUAAACCCAAAAAAGUAUUAUGUUACGCCGUUCGGAUCUGCACUUC` has a log2 enrichment of 1.61.
`AGUCCUGUGCUACACAUCGUAUGUACCGAAUCGGGGAAAAGGGAAAAGGGAAAAGGGGAAAGUAUUAUGUUACGCCGUUCGGAUCUGCAC` has a log2 enrichment of 0.19.
The log2 enrichment of `AAGUCCUGUGCUACACAUCGUAUGUACCGAAUCGGGUUUGGGAAAAAGGGAAAGGGAAAGUAUUAUGUUACGCCGUUCGGAUCUGCACUU` is reported as -0.389.
With `CAAGUCCUGUGCUACACAUCGUAUGUACCGAAUCGGGAAAGGGAAAAAGGGAGGGAAAGUAUUAUGUUACGCCGUUCGGAUCUGCACUUC` the log2 enrichment was 0.0202.
`UGUGACAGGAGAGCGCUUGAAGAGCAAUGUGACGAGGACCAUCAGACACCGAGGGAUGGAGAGACAUCCCACAGGGCCCAGAUUCAGCAG` gave a log2 enrichment of -0.11.
`ACCAUGCAGGUGGGCAUCUUUGGGAAGUGGGGCAAUGGGGGGAUAGGGAGGGGGGUAACACUUUGGGAACAGGUGGUCCCAGGUCGUUUC` gave a log2 enrichment of 0.348.

Series 5
Target: ABI1, truncated, D143A, DHFR fusion (Arabidopsis thaliana)
Technique: DHFR PCA, deep sequencing
Medium: yeast
Notes: methotrexate growth selection, single substitutions
Together with: (+)-ABA 0.11 µM
Relative to: wild-type fitted maximum
Direction: higher = stronger binding
Starting sequence: PYL1, truncated, DHFR fusion (Arabidopsis thaliana); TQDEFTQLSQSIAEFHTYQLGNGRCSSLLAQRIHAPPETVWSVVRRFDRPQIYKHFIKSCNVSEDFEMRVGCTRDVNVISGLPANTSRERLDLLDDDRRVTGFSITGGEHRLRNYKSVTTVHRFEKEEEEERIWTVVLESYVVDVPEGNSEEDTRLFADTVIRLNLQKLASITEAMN
For `V43C`, “relative binding score” read 0.81%.
For `G107V`, “relative binding score” read -0.191%.
Under “relative binding score”, `V62K` is recorded as -2.3%.
For `Q31G`, “relative binding score” read -0.809%.
Under “relative binding score”, `A84H` is recorded as 64.9%.
`E38K` — result for “relative binding score”: 6.41%.
For `A13R`, “relative binding score” read 37.9%.
Under “relative binding score”, `N114D` is recorded as 12.1%.
`V62I` — result for “relative binding score”: 23.1%.
`D95C`: “relative binding score” -2.18%.
`Q167I`: “relative binding score” 4.61%.
`I52E` — result for “relative binding score”: 26.7%.
For `D95T`, “relative binding score” read -3.54%.
`V161F` — result for “relative binding score”: 21.3%.
For `C25N`, “relative binding score” read -0.975%.
Under “relative binding score”, `L93M` is recorded as 31.6%.
Under “relative binding score”, `F157L` is recorded as 9.26%.
For `E139F`, “relative binding score” read -8.41%.
